Assay results of several laboratories.
Lines come from different studies, so protocols differ. ± marks the error that the study gave.
CYP1A2: Cytochrome P450 1A2 (CYP1A2, Homo sapiens, UniProt P05177)
Sequence of UniProt P05177 (whole entry, looked up): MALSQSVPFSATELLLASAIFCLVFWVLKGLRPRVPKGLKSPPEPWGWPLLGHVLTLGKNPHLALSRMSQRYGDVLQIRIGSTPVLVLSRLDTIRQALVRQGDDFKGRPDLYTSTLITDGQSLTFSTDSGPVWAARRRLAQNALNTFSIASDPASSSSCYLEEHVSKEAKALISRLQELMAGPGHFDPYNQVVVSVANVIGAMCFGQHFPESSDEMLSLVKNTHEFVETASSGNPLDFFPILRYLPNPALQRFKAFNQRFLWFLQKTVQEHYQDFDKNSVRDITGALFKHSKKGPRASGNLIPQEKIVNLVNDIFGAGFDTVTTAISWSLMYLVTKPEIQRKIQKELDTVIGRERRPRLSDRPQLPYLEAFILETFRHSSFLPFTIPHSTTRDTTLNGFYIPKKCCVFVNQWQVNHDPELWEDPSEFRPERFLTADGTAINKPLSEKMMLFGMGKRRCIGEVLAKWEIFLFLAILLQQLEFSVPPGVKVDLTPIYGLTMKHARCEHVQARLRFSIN
Sequence of UniProt P98073 (whole entry, looked up): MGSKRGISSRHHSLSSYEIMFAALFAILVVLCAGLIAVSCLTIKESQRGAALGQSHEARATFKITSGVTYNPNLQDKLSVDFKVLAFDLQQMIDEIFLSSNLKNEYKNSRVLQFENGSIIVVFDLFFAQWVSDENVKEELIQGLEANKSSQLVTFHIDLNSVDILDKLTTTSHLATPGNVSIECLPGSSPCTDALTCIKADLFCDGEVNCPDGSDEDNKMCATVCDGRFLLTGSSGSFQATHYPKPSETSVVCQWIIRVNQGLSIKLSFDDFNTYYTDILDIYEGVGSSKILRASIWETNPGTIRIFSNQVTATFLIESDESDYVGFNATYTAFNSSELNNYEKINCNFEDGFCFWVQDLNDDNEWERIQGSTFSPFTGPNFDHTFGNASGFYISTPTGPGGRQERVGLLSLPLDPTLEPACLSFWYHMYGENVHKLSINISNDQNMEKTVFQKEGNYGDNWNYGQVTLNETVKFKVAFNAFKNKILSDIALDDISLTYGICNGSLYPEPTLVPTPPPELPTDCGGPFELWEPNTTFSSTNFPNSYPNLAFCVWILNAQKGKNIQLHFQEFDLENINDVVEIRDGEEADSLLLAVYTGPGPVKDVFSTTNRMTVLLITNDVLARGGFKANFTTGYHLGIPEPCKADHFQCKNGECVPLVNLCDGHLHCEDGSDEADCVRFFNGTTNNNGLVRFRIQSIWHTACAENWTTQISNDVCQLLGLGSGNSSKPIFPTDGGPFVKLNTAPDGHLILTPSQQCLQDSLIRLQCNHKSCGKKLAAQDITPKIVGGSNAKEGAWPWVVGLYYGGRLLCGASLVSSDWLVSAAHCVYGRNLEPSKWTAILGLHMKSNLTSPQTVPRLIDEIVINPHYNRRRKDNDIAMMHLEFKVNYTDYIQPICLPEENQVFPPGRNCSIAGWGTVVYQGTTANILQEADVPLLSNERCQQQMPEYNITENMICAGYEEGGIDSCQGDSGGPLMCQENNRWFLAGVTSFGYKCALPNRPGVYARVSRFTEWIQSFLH

COc1ccsc1CNCC[C@@]1(c2ccccn2)CCOC2(CCCC2)C1 — volume of distribution (Vz) (healthy human, normal hepatic function, plasma; intravenous, 1 mg single dose, arithmetic mean): 129 ± 27.9 L
CC[N+]1=C(C=CC=CC=C2N(CCCCCC(=O)NCCN3C(=O)CC(SC[C@@H](NC(=O)[C@@H](CCCNC(=N)N)NC(=O)[C@@H](CCCNC(=N)N)NC(=O)[C@@H](CCCNC(=N)N)NC(=O)[C@@H](CCCNC(=N)N)NC(=O)[C@@H](CCCNC(=N)N)NC(=O)[C@@H](CCCNC(=N)N)NC(=O)[C@@H](CCCNC(=N)N)NC(=O)[C@@H](CCCNC(=N)N)NC(=O)[C@@H](CCCNC(=N)N)NC(=O)[C@H](CC(C)C)NC(=O)[C@H](CCCCN)NC(=O)[C@H](CC(C)C)NC(=O)[C@H](CCC(N)=O)NC(=O)[C@H](CC(C)C)NC(=O)[C@H](CCCNC(=N)N)NC(=O)CCCCCNC(=O)[C@@H](CCC(=O)O)NC(=O)[C@@H](CCC(=O)O)NC(=O)[C@@H](CCC(=O)O)NC(=O)[C@@H](CCC(=O)O)NC(=O)[C@@H](CCC(=O)O)NC(=O)[C@@H](CCC(=O)O)NC(=O)[C@@H](CCC(=O)O)NC(=O)[C@@H](CCC(=O)O)NC(=O)[C@H](N)CCC(=O)O)C(N)=O)C3=O)c3ccc(S(=O)(=O)O)cc3C2(C)C)C(C)(C)c2cc(S(=O)(=O)[O-])ccc21 (stereo partly shown) — cleavage (Enteropeptidase (TMPRSS15, Homo sapiens, UniProt P98073); substrate; 5 µM): < 3%
CCCCCCCCCCC(=O)O[C@H]1CC[C@H]2[C@@H]3CCC4=CC(=O)CC[C@]4(C)[C@H]3CC[C@]12C — serum testosterone (blood of hypogonadal men, plain tubes; 1000 ng/mL): 578 ± 66.6 ng/dL
CNC(=O)O/N=C/C(C)(C)[S+](C)[O-] (stereo not shown) — inhibition (CYP1A2; inhibitor; human liver microsomes; 2 µM, pH 7.4, together with: phenacetin): < 0%
COc1ccc2c(c1)[C@]13CCCC[C@@H]1[C@H](C2)N(C)CC3 — MRT(0-t) (Wistar rat, both sexes, plasma; oral, 5 mg/kg, 2 h after pretreatment, together with: single TCE 100 mg/kg): 3.68 ± 0.46 h
O=C(O)CCCC1C2CCCN3CCCC(CN1S(=O)(=O)c1ccc(Cl)cc1)C23 (stereo not shown) — CC50 (HEK293T): 200 µM
C=C1C[C@@H]2[C@H](CC[C@]3(C)C(=O)CC[C@@H]23)[C@@]2(C)C=CC(=O)C=C12 — median plasma concentration (LC-MS/MS; postmenopausal breast cancer women, plasma; oral, 25 mg/day, 2 h, self-reported Black race): 5 ng/mL
CN(CCCC(=O)O)N=O — mutagenicity (Salmonella typhimurium, Escherichia coli; preincubation Ames test; concentration not given, with and without S9): negative
CC(C)[C@H](NC(=O)[C@H](CC(=O)O)NC(=O)[C@H](Cc1ccc(O)cc1)NC(=O)[C@@H]1CCCN1C(=O)[C@H](Cc1ccc(O)cc1)NC(=O)[C@H](CCCNC(=N)N)NC(=O)CNC(=O)[C@H](CCCNC(=N)N)NC(=O)CNC(=O)[C@H](CCCNC(=N)N)NC(=O)CNC(=O)[C@H](CCCNC(=N)N)NC(=O)CNC(=O)[C@H](CCCNC(=N)N)NC(=O)CNC(=O)[C@H](CCCNC(=N)N)NC(=O)CNC(=O)[C@H](CCCNC(=N)N)NC(=O)CNC(=O)[C@H](CCCNC(=N)N)NC(=O)CNC(=O)[C@H](CCCNC(=N)N)NC(=O)CNC(=O)[C@H](CCCNC(=N)N)NC(=O)CNC(=O)[C@H](CCCNC(=N)N)NC(=O)CNC(=O)[C@H](CCCNC(=N)N)NC(=O)CNC(=O)[C@H](CCCNC(=N)N)NC(=O)CNC(=O)[C@H](CCCNC(=N)N)NC(=O)CNC(=O)[C@H](CCCNC(=N)N)NC(=O)CNC(=O)[C@H](CCCNC(=N)N)NC(=O)CNC(=O)[C@H](CCCNC(=N)N)NC(=O)CNC(=O)[C@H](CCCNC(=N)N)NC(=O)CNC(=O)[C@H](CCCNC(=N)N)NC(=O)CNC(=O)[C@H](CCCNC(=N)N)NC(=O)CN)C(=O)N1CCC[C@H]1C(=O)N[C@@H](CC(=O)O)C(=O)N[C@@H](Cc1ccc(O)cc1)C(=O)N[C@@H](C)C(=O)O — intracellular half-life (U2OS; dot blot anti-HA): 0.333 to 0.5 h
CN(C[C@H](O)c1cccc(O)c1)N=O — mutagenicity (Salmonella typhimurium, Escherichia coli; preincubation Ames test; concentration not given, with and without S9): negative
CNC(=O)O/N=C/C(C)(C)SC — inhibition (CYP1A2; inhibitor; human liver microsomes; 2 µM, pH 7.4, together with: phenacetin): 6.19%
CN(N=O)c1ccccc1 — mutagenicity (Salmonella typhimurium, Escherichia coli; preincubation Ames test; concentration not given, with and without S9): positive
Cc1ncc2n1-c1ccc(Cl)cc1C(c1ccccc1F)=NC2 — Cmax (healthy men, plasma; oral, 7.5 mg, day 19, geometric mean, together with: 7 days post amenamevir): 38.8 ng/mL
CN(N=O)C1CCC(c2ccc(Cl)c(Cl)c2)c2ccccc21 (stereo not shown) — mutagenicity (Salmonella typhimurium, Escherichia coli; preincubation Ames test; concentration not given, with and without S9): positive
CN[C@@](C)(C[18F])C(=O)O — tracer uptake (A549 tumour model; host not given, pancreas; 30 min, tumour-bearing): 50 %ID/g
CCN(N=O)C(C)C — mutagenicity (Salmonella typhimurium, Escherichia coli; preincubation Ames test; concentration not given, with and without S9): positive
C[C@H]1CNCCc2ccc(Cl)cc21 — plasma concentration (Sprague-Dawley rat, male, plasma; subcutaneous, 0.5 mg/kg, 360 min): 1.2 ± 0.12 ng/mL
CCCCN(N=O)c1cc(C(=O)O)cc(S(N)(=O)=O)c1Oc1ccccc1 — mutagenicity (Salmonella typhimurium, Escherichia coli; preincubation Ames test; concentration not given, with and without S9): negative
[123I]c1cncc(OC[C@@H]2CCN2)c1 — tissue/plasma ratio (SPECT; human, brain cortex; intravenous bolus, 9.1 mCi; reference: plasma): 15.3

Some of these lines once more:
CNC(=O)O/N=C/C(C)(C)SC — inhibition (CYP1A2; inhibitor; human liver microsomes; 2 µM, pH 7.4, together with: phenacetin): 6.19%
